Assay results collected from several papers.
Parts stem from different laboratories: compare values within a part only. Changes are numbered by the printed parent chain.

Series 1 — technique: DHFR PCA, deep sequencing; medium: yeast; with: (+)-ABA 17 µM; relative to: wild-type fitted maximum; reading: higher = stronger binding
Target: ABI1, truncated, D143A, DHFR fusion (Arabidopsis thaliana)
Setting: methotrexate growth selection, single substitutions
Starting sequence: PYL1, truncated, DHFR fusion (Arabidopsis thaliana); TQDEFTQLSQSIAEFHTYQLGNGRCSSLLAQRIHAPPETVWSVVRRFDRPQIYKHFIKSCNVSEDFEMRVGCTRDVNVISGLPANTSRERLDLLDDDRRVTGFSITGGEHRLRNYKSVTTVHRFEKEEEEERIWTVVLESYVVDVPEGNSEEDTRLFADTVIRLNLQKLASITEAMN; partner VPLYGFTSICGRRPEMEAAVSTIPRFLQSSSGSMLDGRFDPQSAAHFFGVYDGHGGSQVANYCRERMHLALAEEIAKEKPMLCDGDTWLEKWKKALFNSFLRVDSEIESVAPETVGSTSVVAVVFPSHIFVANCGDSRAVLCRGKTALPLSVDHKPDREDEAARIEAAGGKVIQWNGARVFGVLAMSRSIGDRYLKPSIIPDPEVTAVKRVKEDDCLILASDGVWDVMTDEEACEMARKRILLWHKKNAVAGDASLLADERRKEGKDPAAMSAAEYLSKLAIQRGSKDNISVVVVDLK
Substitution | relative binding score
V143D | -13.7%
V121N | 2.58%
K168Q | 77.9%
R90A | 26.7%
L29S | 30.4%
V136T | 62.1%
Y18M | 53.4%
I52H | 68.9%
E152R | 66.3%
A13H | 78%
P83Q | 22%
G23S | 67.5%
T86V | 63.3%
F15K | 9.28%
E147Q | 81.9%
D153R | -1.79%
A158L | 96%
D96V | 10.6%
E130F | 76.1%
G21R | 82.3%
E4F | 59.9%
V40D | 0.0549%
N85Q | 83.7%
F103H | 11.9%
L166W | -1.44%

Series 2 — target: CCNA2, cyclin fold, Cln2 fusion (human); technique: yeast growth competition, sequencing; medium: yeast; setting: strong parent motif; relative to: not given; reading: higher = stronger binding
Starting sequence: ORC1 docking peptide (human); PRARKRLELGNLG; partner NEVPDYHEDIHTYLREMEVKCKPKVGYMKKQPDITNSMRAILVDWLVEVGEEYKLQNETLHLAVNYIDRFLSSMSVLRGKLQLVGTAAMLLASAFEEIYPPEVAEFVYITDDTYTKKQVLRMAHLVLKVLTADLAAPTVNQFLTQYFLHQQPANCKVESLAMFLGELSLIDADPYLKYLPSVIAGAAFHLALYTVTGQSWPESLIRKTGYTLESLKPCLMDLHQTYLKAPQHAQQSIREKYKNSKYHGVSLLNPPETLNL
Substitution | normalised enrichment score
L9F | 6.88
R6T | 2.1
L12Q | 5.12
R2M | 4.37
L12H | 5.23
R4V | 1.55
G10S | 4.24
L12F | 4.95
G13V | 4.71
R4Q | 2.2
G13Q | 4.93
L12S | 5.3
N11M | 5.39
G10F | 4.02
L7S | 0.737
E8H | 3.23
L9Q | 1.01
R2G | 4.52
P1A | 4.42
R2L | 2.92
G10C | 4.06
K5P | 0.591
R6P | 1.1
K5S | 0.793
G13P | 5.74

Series 3 — target: DBP, bZIP domain (human); technique: DHFR protein complementation; medium: yeast; relative to: wild-type JUN-FOS pair; reading: higher = stronger binding
Setting: single substitutions, most at no-binding floor
Starting sequence: JUN, bZIP domain (human); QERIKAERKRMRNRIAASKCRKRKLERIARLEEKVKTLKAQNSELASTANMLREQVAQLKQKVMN; partner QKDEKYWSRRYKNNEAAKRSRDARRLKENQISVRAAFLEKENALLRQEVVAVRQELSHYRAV
Substitution | binding fitness [natural log]
K34A | -1.41
S47F | -1.45
K34C | -1.29
E54V | -1.42
A40D | -1.42
Q41T | -1.38
A46E | -1.54
L52R | -1.49
Q55A | -1.47
L52G | -1.51
L45V | -1.32
K39T | -1.52
K39V | -1.42
T37N | -1.41
V35N | -1.56
T37H | -1.3
K39Y | -1.54
L52T | -1.46
A49C | -1.32
M51N | -1.37
N42C | -1.53
A49V | -1.42
T48M | -1.46
K34E | -1.35
N42V | -1.53

Series 4 — technique: protein-binding microarray; form: double-stranded DNA, one strand shown; medium: in vitro; concentration: 250 nM; setting: 60-bp whole probe; with: salmon DNA 0.4 mg/ml; relative to: random background probes; reading: higher = stronger binding; shared flanks, not repeated: GCCTAGCAC … GTCTTGATTCGCTTGACGCTGCTG
Target: Interferon regulatory factor 7, full length, phosphomimetic (IRF7, Homo sapiens, UniProt Q92985, residues 1-503, S101K/S471D/S472D/S475D/S476D/S477D/S483D/S484D/S487D)
Construct (chain): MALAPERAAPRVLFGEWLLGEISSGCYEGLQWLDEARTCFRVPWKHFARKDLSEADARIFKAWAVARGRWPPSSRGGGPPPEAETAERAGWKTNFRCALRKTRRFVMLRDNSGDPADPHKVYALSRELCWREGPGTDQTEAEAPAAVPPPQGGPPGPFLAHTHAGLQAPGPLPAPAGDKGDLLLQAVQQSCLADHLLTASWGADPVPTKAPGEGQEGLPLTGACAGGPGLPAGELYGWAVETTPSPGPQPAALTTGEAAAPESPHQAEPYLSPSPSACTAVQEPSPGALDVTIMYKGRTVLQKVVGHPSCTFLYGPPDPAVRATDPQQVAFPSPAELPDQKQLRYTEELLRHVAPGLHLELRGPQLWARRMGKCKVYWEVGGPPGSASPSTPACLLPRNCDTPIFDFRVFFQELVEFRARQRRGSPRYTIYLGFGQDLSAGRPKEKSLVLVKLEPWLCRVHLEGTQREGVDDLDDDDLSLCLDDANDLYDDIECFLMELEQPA
Strand | log fluorescence [z-score]
TCTCATTTCCAATTACCTTTGTGCTAG | 2.01
TTATGTCTCCTTTTCCTTTAGTGCTAG | 1.58
TTAGAACTGAGTCTTGATTAGTGCTAG | -0.16
CTAGAACTGAGTCTCGATTAGTGCTAG | 1.27
TTAGGACGGCTTATCCTTTAGTGCTAG | -0.251
GACGGACTGCTACTGCTGCCGTGCTAG | -0.864
GACGGACTGGGTGTCGGGACGTGCTAG | -0.902
TCAGTAAGCAAAAATGAACTGTGCTAG | -0.394
TCATTTGTCATCTATAATACTGTGCTA | 1.61
GACGGACTGGACTATCGGGCCGTGCTA | -0.64
GACGATATCGGACTGGAGACGTGCTAG | 0.0637
GACGATTCCGGTTTCGAGACGTGCTAG | 5.27
TTAGGTTTCCTTATCCTTGAGTGCTAG | 2.63
TCATGTGTCAACTTTCTCACTGTGCTA | 0.0442
GACAGACTGGGTCTCGGGACGTGCTAG | -0.143
GACGGCATCGACTTTCGGGACGTGCTA | -0.438
GTTGCTCTCTCACCACCTTCGTGCTAG | 0.119
CTTTTTTTTTTTTTCTGATCGTGCTAG | 1.8
GACGGTCTCCTTATCCTGCCGTGCTAG | 0.113

Other studies, line by line
Substance | target | test | test system | conditions | how to read | endpoint | result
PhoQ, residues 284 288 289 292 302 303 SSTLLI | PhoP, residues 12 14 15 18 19 LHHSG (Escherichia coli, UniProt P23836) | Sort-seq, item: YFP reporter | E. coli | PhoQ-PhoP variant library, with: 10 µM Mg2+ | relative to: high Mg2+ state, higher = stronger signaling | fold induction | 8.61

Excerpt of the above (series 1):
Substitution | relative binding score
F15K | 9.28%
E147Q | 81.9%
D153R | -1.79%
A158L | 96%
D96V | 10.6%
E130F | 76.1%
G21R | 82.3%
E4F | 59.9%
V40D | 0.0549%
N85Q | 83.7%
F103H | 11.9%
